Measurements pooled from the literature.
Cell line: WI-38
Effect on: cell growth or viability

`O=C(/C=C/c1ccccc1)OCCCC[P+](c1ccccc1)(c1ccccc1)c1ccccc1` gave an IC50 of 66.3 µM (SRB; 48 h).
For `CCN1CCC2(CC1)C/C(=N\N=C\c1ccc(O)cc1)c1ccccc1O2`, the IC50 was 47.5 µM.
`Cc1ccc(C(C)C)cc1.N=C(N)Nc1nc2ccccc2s1.[Cl-].[Cl][Ru+]` has an IC50 of 136 µM (MTT; 24 h).
`CCN1CCC2(CC1)C/C(=N\NC(=O)Nc1ccc(OC)cc1)c1ccccc1O2` gave an IC50 of 83.5 µM.
`Cc1nn(-c2ccc(S(=O)(=O)N[C@@H](CO)CC(C)C)cc2)c2nn3nnnc3nc12` has an IC50 of 0.98 µM (MTT; 72 h).
`O=C(/C=C/c1ccc(O)cc1)OCCCC[P+](c1ccccc1)(c1ccccc1)c1ccccc1` gave an IC50 of 113 µM (SRB; 48 h).
`CCN1CCC2(CC1)C/C(=N\NC(=O)Nc1ccc([N+](=O)[O-])cc1)c1ccccc1O2` gave an IC50 of 57.5 µM.
For `Cc1c(-c2cccc(C3=NCCN3)c2)oc(-c2cccc(C3=NCCN3)c2)c1C`, the IC50 was 1.3 µM (SRB).
For `N=C(N)Nc1nc2ccccc2[nH]1`, the IC50 was > 500 µM (MTT; 24 h).
With `Cc1cc(N2CCN(C(=O)CN3CCN(c4ccccc4)CC3)CC2)n2ncnc2n1` the IC50 was 43.9 µM.
`Cc1ccc(C(=O)/C=C/c2cn(CC(=O)Nc3nc(-c4ccccc4)cs3)nn2)cc1` has an IC50 of 3.48 µM (MTT; 72 h).
The IC50 of `Cc1ccc(NC(=O)N/N=C2\CC3(CCN(C)CC3)Oc3ccccc32)cc1` is reported as 66.3 µM.
`CC(=NN=c1sc(C(=O)c2ccccc2)nn1-c1ccccc1)c1ccc(S(=O)(=O)N2CCC(C)CC2)cc1` has an IC50 of 69.7 µM.
The IC50 of `CCN1CCC2(CC1)C/C(=N\NC(=O)Nc1ccccc1)c1ccccc1O2` is reported as 65.6 µM.
`CCCN1CCN(CC(=O)N2CCN(c3cc(C)nc4ncnn34)CC2)CC1` has an IC50 of 32.8 µM.
The IC50 of `O=C(/C=C/c1ccc(O)c(O)c1)OCCCC[P+](c1ccccc1)(c1ccccc1)c1ccccc1` is reported as 70.6 µM (SRB; 48 h).
`CSC(=NN=C(C)c1ccc(S(=O)(=O)N2CCC(C)CC2)cc1)N(C)C` gave an IC50 of 86.5 µM.
`O=C(Cn1cc(C2CC(c3ccccc3)=NN2)nn1)Nc1nc(-c2ccccc2)cs1` (stereo not shown) gave an IC50 of 0.205 µM (MTT; 72 h).
`COc1cc(/C=C/C(=O)OCCCC[P+](c2ccccc2)(c2ccccc2)c2ccccc2)ccc1O` has an IC50 of 98.6 µM (SRB; 24 h).
